{"data": "Assay results gathered from unrelated publications", "note": "Every numbered part comes from another study and shows a few of its results, in no order.", "sequence of UniProt P00519 (whole entry, unmodified, looked up)": "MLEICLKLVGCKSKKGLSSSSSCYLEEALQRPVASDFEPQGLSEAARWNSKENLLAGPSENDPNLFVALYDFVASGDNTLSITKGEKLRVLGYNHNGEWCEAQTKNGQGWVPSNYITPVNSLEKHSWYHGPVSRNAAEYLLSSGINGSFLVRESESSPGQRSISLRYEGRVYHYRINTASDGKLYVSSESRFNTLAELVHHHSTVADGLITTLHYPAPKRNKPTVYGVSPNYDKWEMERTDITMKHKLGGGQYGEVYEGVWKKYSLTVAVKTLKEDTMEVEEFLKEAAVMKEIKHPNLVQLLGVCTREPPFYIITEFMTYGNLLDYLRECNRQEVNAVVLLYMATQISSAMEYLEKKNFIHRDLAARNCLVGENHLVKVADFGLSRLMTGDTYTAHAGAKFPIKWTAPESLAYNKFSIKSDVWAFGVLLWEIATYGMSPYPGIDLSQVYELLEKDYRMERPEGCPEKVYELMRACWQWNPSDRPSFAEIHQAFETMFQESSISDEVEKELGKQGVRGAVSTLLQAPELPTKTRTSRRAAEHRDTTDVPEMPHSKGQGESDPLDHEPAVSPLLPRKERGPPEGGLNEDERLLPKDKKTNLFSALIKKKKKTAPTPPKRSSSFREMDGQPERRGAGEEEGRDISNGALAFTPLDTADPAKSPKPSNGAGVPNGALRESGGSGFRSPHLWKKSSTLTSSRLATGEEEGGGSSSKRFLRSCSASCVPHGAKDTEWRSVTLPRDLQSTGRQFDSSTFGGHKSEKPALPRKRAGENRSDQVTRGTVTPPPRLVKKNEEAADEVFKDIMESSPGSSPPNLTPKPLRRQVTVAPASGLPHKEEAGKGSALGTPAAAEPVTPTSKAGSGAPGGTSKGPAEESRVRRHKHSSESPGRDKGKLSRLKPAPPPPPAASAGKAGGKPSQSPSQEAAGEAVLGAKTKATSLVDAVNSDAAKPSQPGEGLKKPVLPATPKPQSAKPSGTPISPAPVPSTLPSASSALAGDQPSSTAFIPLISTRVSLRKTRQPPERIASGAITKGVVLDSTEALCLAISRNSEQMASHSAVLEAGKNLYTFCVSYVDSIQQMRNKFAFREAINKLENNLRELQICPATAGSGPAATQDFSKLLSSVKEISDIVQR", "sequence of UniProt Q8NE63 (whole entry, looked up)": "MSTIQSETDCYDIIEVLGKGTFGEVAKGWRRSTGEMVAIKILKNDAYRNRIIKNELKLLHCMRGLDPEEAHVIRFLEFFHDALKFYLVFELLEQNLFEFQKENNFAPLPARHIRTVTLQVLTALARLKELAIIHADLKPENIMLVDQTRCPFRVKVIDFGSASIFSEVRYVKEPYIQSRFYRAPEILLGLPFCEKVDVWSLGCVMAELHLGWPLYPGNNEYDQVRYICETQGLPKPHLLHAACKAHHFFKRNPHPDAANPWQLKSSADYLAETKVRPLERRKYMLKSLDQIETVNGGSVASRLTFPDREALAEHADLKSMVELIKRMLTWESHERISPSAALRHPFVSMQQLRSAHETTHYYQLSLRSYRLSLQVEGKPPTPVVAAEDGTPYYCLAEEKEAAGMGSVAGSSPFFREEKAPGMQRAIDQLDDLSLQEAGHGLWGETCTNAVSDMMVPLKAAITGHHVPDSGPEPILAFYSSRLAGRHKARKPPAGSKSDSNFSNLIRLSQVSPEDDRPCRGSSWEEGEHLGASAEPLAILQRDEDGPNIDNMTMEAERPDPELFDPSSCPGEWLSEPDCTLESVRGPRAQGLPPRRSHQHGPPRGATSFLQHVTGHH", "sequence of UniProt Q16816 (whole entry, looked up)": "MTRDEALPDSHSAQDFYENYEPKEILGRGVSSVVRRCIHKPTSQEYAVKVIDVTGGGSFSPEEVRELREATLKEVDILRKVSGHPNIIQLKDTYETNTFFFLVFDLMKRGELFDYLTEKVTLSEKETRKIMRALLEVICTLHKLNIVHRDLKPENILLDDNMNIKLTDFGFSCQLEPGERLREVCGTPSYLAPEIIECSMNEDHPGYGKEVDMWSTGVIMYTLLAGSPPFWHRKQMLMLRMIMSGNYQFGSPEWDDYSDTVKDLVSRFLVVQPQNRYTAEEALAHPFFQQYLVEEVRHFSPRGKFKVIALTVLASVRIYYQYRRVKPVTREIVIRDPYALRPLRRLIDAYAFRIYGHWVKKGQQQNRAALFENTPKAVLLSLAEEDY", "sequence of UniProt Q00534 (whole entry, looked up)": "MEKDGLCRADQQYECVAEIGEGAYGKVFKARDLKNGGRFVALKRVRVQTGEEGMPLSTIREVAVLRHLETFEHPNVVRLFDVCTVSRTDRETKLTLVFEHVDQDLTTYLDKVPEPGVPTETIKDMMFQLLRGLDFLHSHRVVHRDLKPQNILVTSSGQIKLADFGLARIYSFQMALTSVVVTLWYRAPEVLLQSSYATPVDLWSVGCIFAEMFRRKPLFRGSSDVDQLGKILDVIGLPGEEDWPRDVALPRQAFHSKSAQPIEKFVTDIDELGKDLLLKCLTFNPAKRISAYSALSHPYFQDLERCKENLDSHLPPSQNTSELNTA", "sequence of UniProt O75716 (whole entry, looked up)": "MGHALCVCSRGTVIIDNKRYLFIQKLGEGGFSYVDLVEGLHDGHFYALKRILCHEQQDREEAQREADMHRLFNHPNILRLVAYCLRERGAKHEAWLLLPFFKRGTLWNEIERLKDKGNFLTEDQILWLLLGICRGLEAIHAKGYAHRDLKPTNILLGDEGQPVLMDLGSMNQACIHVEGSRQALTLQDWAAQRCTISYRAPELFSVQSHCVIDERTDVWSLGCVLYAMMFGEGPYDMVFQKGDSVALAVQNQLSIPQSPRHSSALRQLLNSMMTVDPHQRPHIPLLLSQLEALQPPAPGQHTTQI", "sequence of UniProt Q9NWZ3 (whole entry, looked up)": "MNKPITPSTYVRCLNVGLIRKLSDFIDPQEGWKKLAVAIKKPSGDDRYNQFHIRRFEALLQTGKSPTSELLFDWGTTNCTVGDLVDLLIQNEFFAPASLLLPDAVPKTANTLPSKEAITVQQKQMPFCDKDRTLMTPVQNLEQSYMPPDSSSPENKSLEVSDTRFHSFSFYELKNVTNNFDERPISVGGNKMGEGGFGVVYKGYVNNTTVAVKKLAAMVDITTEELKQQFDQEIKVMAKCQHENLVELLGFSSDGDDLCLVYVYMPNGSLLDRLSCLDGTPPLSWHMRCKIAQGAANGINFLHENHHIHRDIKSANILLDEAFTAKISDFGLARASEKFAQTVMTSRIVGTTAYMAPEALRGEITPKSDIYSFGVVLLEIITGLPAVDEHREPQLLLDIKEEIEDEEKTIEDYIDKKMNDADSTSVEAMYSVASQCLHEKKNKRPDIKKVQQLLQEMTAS", "sequence of UniProt Q13554 (whole entry, looked up)": "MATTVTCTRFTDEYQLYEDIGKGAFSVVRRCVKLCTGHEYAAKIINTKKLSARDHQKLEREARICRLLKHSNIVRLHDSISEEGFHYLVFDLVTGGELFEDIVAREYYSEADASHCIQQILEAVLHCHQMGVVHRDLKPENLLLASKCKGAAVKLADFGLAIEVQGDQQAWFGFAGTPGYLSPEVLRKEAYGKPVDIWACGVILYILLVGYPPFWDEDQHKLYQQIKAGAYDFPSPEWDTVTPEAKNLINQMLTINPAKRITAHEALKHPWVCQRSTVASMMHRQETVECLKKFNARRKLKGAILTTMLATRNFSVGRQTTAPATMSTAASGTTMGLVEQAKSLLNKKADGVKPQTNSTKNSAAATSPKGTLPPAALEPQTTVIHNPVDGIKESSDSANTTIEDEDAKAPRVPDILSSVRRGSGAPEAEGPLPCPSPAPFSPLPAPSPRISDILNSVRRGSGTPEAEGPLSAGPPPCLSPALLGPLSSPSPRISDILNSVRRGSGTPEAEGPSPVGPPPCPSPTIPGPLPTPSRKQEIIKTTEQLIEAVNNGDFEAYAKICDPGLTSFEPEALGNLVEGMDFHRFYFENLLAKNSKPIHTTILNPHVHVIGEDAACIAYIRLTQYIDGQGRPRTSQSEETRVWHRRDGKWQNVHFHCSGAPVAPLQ", "sequence of UniProt O75582 (whole entry, looked up)": "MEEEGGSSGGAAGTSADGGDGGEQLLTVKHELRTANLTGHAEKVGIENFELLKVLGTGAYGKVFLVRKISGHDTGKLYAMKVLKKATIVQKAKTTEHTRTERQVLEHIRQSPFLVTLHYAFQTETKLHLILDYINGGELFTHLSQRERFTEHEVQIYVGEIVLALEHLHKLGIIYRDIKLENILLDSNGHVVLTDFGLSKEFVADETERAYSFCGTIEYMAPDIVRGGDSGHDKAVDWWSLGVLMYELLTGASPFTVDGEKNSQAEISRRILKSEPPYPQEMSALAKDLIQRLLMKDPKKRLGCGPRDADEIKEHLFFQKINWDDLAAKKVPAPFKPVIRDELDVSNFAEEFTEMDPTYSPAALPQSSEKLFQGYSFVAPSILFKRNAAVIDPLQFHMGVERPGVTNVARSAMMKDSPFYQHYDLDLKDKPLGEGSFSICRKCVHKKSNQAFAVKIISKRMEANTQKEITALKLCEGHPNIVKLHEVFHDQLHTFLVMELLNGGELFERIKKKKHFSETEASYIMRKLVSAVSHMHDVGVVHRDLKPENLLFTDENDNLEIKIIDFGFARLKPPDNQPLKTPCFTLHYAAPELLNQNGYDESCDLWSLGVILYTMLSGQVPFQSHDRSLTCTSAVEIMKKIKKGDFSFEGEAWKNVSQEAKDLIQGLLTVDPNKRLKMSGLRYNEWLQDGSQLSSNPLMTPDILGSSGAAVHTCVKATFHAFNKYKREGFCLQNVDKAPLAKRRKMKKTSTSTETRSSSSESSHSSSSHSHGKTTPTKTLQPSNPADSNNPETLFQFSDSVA", "sequence of UniProt P11309 (whole entry, looked up)": "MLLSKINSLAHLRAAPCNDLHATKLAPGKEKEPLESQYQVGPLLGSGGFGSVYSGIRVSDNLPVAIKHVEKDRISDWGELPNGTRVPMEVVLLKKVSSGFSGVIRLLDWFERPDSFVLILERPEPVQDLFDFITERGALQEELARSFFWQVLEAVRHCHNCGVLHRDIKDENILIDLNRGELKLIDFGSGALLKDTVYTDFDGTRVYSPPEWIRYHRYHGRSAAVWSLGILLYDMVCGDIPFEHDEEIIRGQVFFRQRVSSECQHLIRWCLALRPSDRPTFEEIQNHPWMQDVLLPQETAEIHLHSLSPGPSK"}
{"data": "Series 1", "cell line": "A-375", "tested at": "100 µM", "time": "18 h"}
{"SMILES": "CCCCCCCCCCCCCCCCOP(=O)([O-])OCC[N+](C)(C)C", "viability [%]": 10.8}
{"SMILES": "CCN(CC)CCNC(=O)c1cc(Cl)c(N)cc1OC", "viability [%]": 89.7}
{"SMILES": "CC(C[N+](C)(C)C)OC(N)=O (centres unmarked)", "viability [%]": 98.1}
{"SMILES": "Nc1nc2ncc(CNc3ccc(C(=O)N[C@@H](CCC(=O)O)C(=O)O)cc3)nc2c(=O)[nH]1", "viability [%]": 105}
{"SMILES": "CC(=O)Oc1cc(C)c(OC(C)=O)c2ccccc12", "viability [%]": 17.2}
{"SMILES": "CN1C[C@@H]2c3ccccc3Oc3ccc(Cl)cc3[C@H]2C1 (racemic)", "viability [%]": 8.2}
{"SMILES": "CN(Cc1cnc2nc(N)nc(N)c2n1)c1ccc(C(=O)N[C@@H](CCC(=O)O)C(=O)O)cc1", "viability [%]": 69.2}
{"SMILES": "Cc1cc(C2CCCCC2)n(O)c(=O)c1", "viability [%]": 80.6}
{"SMILES": "O=C(O)CCCNC(=O)c1cccnc1", "viability [%]": 104}
{"SMILES": "O=C(O)CCc1nc2ccccc2[nH]1", "viability [%]": 101}
{"SMILES": "CC(C(=O)O)c1ccc(-c2ccccc2)c(F)c1 (centres unmarked)", "viability [%]": 111}
{"SMILES": "NC(=O)c1cc[n+](CC2=C(C(=O)O)N3C(=O)[C@@H](NC(=O)[C@@H](c4ccccc4)S(=O)(=O)[O-])[C@H]3SC2)cc1", "viability [%]": 71.7}
{"SMILES": "Cc1c(C(=O)Nc2ccc(N3C[C@@H](C)O[C@@H](C)C3)nc2)cccc1-c1ccc(OC(F)(F)F)cc1", "viability [%]": 21.6}
{"data": "Series 2", "host": "human", "matrix": "microsomes or S9", "tested at": "2 µM", "time": "0.5 h"}
{"Structure (SMILES)": "Cn1cc(-c2cccc(CNc3nnc(C(C)(C)C)o3)c2)cn1", "remaining compound": "38.8%"}
{"Structure (SMILES)": "Nc1ccc(F)cc1-c1cc(Cl)cc(Cl)c1", "remaining compound": "16.2%"}
{"Structure (SMILES)": "Cc1cc(N(CC(=O)N2CCC(C(N)=O)CC2)S(C)(=O)=O)ccc1Br", "remaining compound": "84.9%"}
{"Structure (SMILES)": "CCOc1ccc(-c2[nH]c3[nH]c(=O)[nH]c(=O)c3c2-c2ccc(OC)cc2)cc1OC", "remaining compound": "80.6%"}
{"Structure (SMILES)": "C=CCc1c(O)ccc2[nH]cc(S(=O)(=O)c3ccc(C)cc3)c12", "remaining compound": "32.1%"}
{"Structure (SMILES)": "CCOc1cc(CNCCCN2CCOCC2)cc(Br)c1OCc1ccccc1Cl", "remaining compound": "8.34%"}
{"data": "Series 3", "Structure (SMILES)": "C[C@@H](c1cccc(C#N)c1)n1cc(Cl)cc(C(N)=O)c1=N", "effect on": "cell-free assay", "method": "competition with immobilised ligand", "tested at": "1 µM"}
{"target": "PIM1 (Homo sapiens, UniProt P11309)", "remaining binding [%]": 100}
{"target": "EGFR (Homo sapiens, UniProt P00533)", "remaining binding [%]": 100}
{"target": "PRKACA (Homo sapiens, UniProt P17612)", "remaining binding [%]": 100}
{"target": "IRAK4 (Homo sapiens, UniProt Q9NWZ3)", "remaining binding [%]": 87}
{"target": "Tyrosine-protein kinase ABL1, phosphorylated (ABL1, Homo sapiens, UniProt P00519, F317L)", "remaining binding [%]": 0}
{"target": "SRMS (Homo sapiens, UniProt Q9H3Y6)", "remaining binding [%]": 83}
{"target": "CSK (Homo sapiens, UniProt P41240)", "remaining binding [%]": 97}
{"data": "Series 4", "SMILES": "Cn1nc2c3c(cccc31)C(=O)c1ccccc1-2", "effect on": "enzyme activity", "mode": "inhibitor", "tested at": "0.5 µM", "reference": "control"}
{"target": "EPHB1 (Homo sapiens, UniProt P54762)", "remaining activity [%]": 94.6}
{"target": "HIPK4 (Homo sapiens, UniProt Q8NE63)", "remaining activity [%]": 102}
{"target": "PRKACG (Homo sapiens, UniProt P22612)", "remaining activity [%]": 108}
{"target": "CAMK2B (Homo sapiens, UniProt Q13554)", "remaining activity [%]": 95.3}
{"target": "BLK (Homo sapiens, UniProt P51451)", "remaining activity [%]": 106}
{"target": "STK17A (Homo sapiens, UniProt Q9UEE5)", "remaining activity [%]": 83.7}
{"target": "WNK3 (Homo sapiens, UniProt Q9BYP7)", "remaining activity [%]": 92}
{"target": "MAPKAPK3 (Homo sapiens, UniProt Q16644)", "remaining activity [%]": 104}
{"target": "MAP4K4 (Homo sapiens, UniProt O95819)", "remaining activity [%]": 85.1}
{"target": "RPS6KA5 (Homo sapiens, UniProt O75582)", "remaining activity [%]": 100}
{"target": "STK16 (Homo sapiens, UniProt O75716)", "remaining activity [%]": 83.3}
{"target": "EPHA4 (Homo sapiens, UniProt P54764)", "remaining activity [%]": 104}
{"target": "Cyclin-dependent kinase 4, with cyclin D3 (CDK4, Homo sapiens, UniProt P11802)", "remaining activity [%]": 92.4}
{"target": "RPS6KA6 (Homo sapiens, UniProt Q9UK32)", "remaining activity [%]": 90.4}
{"target": "PHKG1 (Homo sapiens, UniProt Q16816)", "remaining activity [%]": 86.4}
{"target": "Cyclin-dependent kinase 6, with cyclin D3 (CDK6, Homo sapiens, UniProt Q00534)", "remaining activity [%]": 101}
{"target": "ABL1 (Homo sapiens, UniProt P00519)", "remaining activity [%]": 99.1}
{"target": "EPHB4 (Homo sapiens, UniProt P54760)", "remaining activity [%]": 99.9}
{"target": "AXL (Homo sapiens, UniProt P30530)", "remaining activity [%]": 104}
{"target": "DYRK3 (Homo sapiens, UniProt O43781)", "remaining activity [%]": 129}
{"target": "PDPK1 (Homo sapiens, UniProt O15530)", "remaining activity [%]": 94.5}
{"target": "Cyclin-dependent kinase 1, with cyclin B (CDK1, Homo sapiens, UniProt P06493)", "remaining activity [%]": 108}
{"target": "HIPK2 (Homo sapiens, UniProt Q9H2X6)", "remaining activity [%]": 105}
{"target": "TSSK2 (Homo sapiens, UniProt Q96PF2)", "remaining activity [%]": 95.4}
{"note": "A few entries again (series 4):"}
{"target": "WNK3 (Homo sapiens, UniProt Q9BYP7)", "remaining activity [%]": 92}
{"target": "AXL (Homo sapiens, UniProt P30530)", "remaining activity [%]": 104}
{"target": "PRKACG (Homo sapiens, UniProt P22612)", "remaining activity [%]": 108}
{"target": "MAPKAPK3 (Homo sapiens, UniProt Q16644)", "remaining activity [%]": 104}
{"target": "PDPK1 (Homo sapiens, UniProt O15530)", "remaining activity [%]": 94.5}
{"target": "EPHB1 (Homo sapiens, UniProt P54762)", "remaining activity [%]": 94.6}
{"target": "RPS6KA5 (Homo sapiens, UniProt O75582)", "remaining activity [%]": 100}
